# Assay results of several laboratories.
# A part holds a random share of what one study measured. Substitutions count along the parent as printed.

# Block 1
# Target: CCND3, cyclin fold, Cln2 fusion (human)
# Technique: yeast growth competition, sequencing
# Matrix: yeast
# Setting: strong parent motif
# Reference: not given
# Reading: higher = stronger binding
# Parent: INSM1 docking peptide (human); PKAIRKLHFEDEV
Substitution,normalised enrichment score
A3E,0.323
H8R,0.433
K6H,1.05
A3R,0.267
K6A,1.42
E12A,1.07
H8V,1.94
A3F,0.462
A3T,0.471
L7N,0.177
H8M,1.06
K6T,0.974
R5Q,0.35
E10P,1.14
L7V,0.613
K6D,0.106
D11R,0.0939
K6W,0.686
D11P,0.555

# Block 2
# Target: RNA binding protein fox-1 homolog 2, RRM domain, GST-SBP tag (RBFOX2, Homo sapiens, UniProt O43251-10, residues 100-194)
# Technique: RNA Bind-n-Seq
# Form: RNA
# Matrix: in vitro
# Concentration: 365 nM
# Setting: natural RNA segment, single round, ends assumed
# Reference: no-protein control
# Reading: higher = stronger binding
# Construct (chain): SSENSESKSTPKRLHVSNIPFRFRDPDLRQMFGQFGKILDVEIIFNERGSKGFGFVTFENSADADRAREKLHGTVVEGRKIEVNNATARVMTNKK
Strand,RBNS enrichment (R)
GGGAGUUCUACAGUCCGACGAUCAGUGGGAAGAGAGUACCGGCAUCGGGUUUCCUUGGGAUCAAUUUCAUUACCGUGUACCUUUCCCAUUGUGGUCAUGCCAUUUGGCAGGGGGAGAAUGGGAGGCUUGGCCUUGGAAUUCUCGGGUGCCAA,0.436
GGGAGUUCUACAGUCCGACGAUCAAUUAUUGAUCAAGAAGACAGGUUUGUUUCCUAAUUAGCACACCCUGACUUCACUCAUUUGCUUUCUUUUCCUUGGAACCCUGCCUAAUAACUUCUGUGGGAGCUCAUCCUGGAAUUCUCGGGUGCCAA,0.663
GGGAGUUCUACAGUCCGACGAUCGACUCCCUUACACAGUAUUGAUCUUCUGACUGUGGAAACAACCUUCCUCUCACUUUCACACCUUUAAUUUAAAUCUAUUUAAGAGAACCAUGGUUCUGAUUGUUGUGUAUUGGAAUUCUCGGGUGCCAA,0.533
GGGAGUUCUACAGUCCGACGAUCACUGGUGCAGAUGGUUGACAUUUUUCCCUAUUUUCCUCACUUUAUGAAAGAAUUUAAAUAAAAAAAAAGAACAUUUCUAAAACCAGAGGACAAAAGGGGUUAAUGUUACGUGGAAUUCUCGGGUGCCAA,0.366
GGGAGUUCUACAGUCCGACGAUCGUCAGGCAGGGAUGUUUUUAAAGAAAUGAAUUUGAUCAUGUGGAAUCUGUUAGCUCUUAAGGCUCUCCUCGAAUAUGGCAGCAUUUGGCCGCCACUCCCUACGCCCACCAUGGAAUUCUCGGGUGCCAA,0.682
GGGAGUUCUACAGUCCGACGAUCAAGAAGCUUCAAGAAAGCACUGGGUUGUAGGUGUUAAAAUAUCCUCUAGUGAUGUUCACCACUUUUAUUUAUUCCUACCUAUUUAUUUAUUUCAUAGCACCAGUAUUCAGUGGAAUUCUCGGGUGCCAA,0.963
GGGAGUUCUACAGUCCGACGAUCUUAGCAGUUGAAUCCAAACCAGUUUCAUUUAGCUGGAAGUAGACAGGAAGGAGCUGCCUUAAGCACUUUAGAAAAAGAAUUUGCUACAAUUCAUUUGACUCAGCUGAUUGUGGAAUUCUCGGGUGCCAA,0.356
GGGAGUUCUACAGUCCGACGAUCGAAUUUAAAAAAUAUGUAACUGCUGUUUAUACAUUGGCUCCUUACUGCUUAUUAAUCUGUAUUGUACACAUGAUGAAAUGAAGCAGAAGCUGGGAGUCGGCCUUUCCUCUUGGAAUUCUCGGGUGCCAA,0.302
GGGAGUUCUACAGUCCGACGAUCAGCUUAAUGUGCCCUCUCCCCCCAACAACCUGCAGGUUCACAGCACCAGCCACACAGCGGUAGGGAUGAAAUAGUGACAUAAUAUAUUCUAUUUUUGUAACCUUCCUAUUUGGAAUUCUCGGGUGCCAA,0.594
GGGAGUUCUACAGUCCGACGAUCUUAUCCAUACCCAUGGAAACUAAAGAGAAGCCUGCCCCAUUUCUUCGUCCUUUGUUUGCCUUUGUGGAAAGACAGAAGGCUGGCCUCCACUCUCAGCUUGCAGGUCUUCGUGGAAUUCUCGGGUGCCAA,3.25
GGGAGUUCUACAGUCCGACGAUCAGGACAUGGAUCCAAAAUGAUGAUGAAGCAUCUCCCAUGGGGAGGUGAUGGUGGGGAGAUGAUGGGCUAAACAGGCAACUUUUCAAAAACACAGCUAUCAUAGAAAAGAAUGGAAUUCUCGGGUGCCAA,1.12
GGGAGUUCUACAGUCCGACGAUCCUUUAAACUUUGCUCUUUCAGGUGGAGGCUUCGUUUCUGGGAUCCCACUGCACCGCCAUUUCUUCCCAGAUUUAUGUGUAUAACUUAAACUGGAAAAAAAGAAAAAGAAAUGGAAUUCUCGGGUGCCAA,0.314

# Block 3
# Target: RING finger protein unkempt homolog, zinc fingers 1-6, SBP tag (UNK, Homo sapiens, UniProt Q9C0B0, residues 30-357)
# UniProt Q9C0B0, sequence (30-357, looked up): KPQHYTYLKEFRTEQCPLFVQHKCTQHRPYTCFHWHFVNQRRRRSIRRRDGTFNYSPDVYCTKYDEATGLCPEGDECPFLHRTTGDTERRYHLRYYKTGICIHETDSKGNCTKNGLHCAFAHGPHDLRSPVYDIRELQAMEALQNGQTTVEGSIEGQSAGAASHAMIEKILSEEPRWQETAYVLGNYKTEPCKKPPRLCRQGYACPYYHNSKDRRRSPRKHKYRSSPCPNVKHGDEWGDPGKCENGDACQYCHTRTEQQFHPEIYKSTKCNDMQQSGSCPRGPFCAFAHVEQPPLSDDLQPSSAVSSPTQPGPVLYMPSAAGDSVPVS
# Technique: RNA Bind-n-Seq
# Form: RNA
# Matrix: in vitro
# Concentration: 100 nM
# Setting: RNA with constant flanks, vertebrate orthologous sites, ends assumed
# Reference: input RNA pool
# Reading: higher = stronger binding
Strand,bound/input enrichment
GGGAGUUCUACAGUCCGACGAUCUCCUCAACUUGUUCUAGCUAGUGAUCCUUCAAAGUUGAGUCAGGCAUUGAUAGUAGGUAUUAGAUGCUUUCAUUUCUUUGUUGCCACUGAUCAGAUAAACAGGCGUUAAAAACAGGAAUACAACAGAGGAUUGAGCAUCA,0.636 ratio
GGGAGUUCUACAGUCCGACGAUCUAGUGCUAAAGCCAAUGGUGGUUCUAAAAUACUAUUUAUUUGUGUCUAUAAGUUUGUACAUAGUAAUACCAACCUCAUUGUUACUGAAUUUUUCAUGGAGGGGGGCAAGUUUGACUUUUGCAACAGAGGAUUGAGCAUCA,1.24 ratio
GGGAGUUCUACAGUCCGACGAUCGGGACGCUUUGAUGUAAAAAUUGAAGUUAAGAGCUGAUCACAAGCACAAAUCUUUCCCACUAGCCAUUUAAUAAGUUAAAGAAAAAGAUACACAAACCUACUAGUCUUGAACAAACUGUCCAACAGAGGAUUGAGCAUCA,2.27 ratio
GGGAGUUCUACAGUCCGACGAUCUGUCUGCCUCAUUCUGAAAUUUACACAGUAGACCAUUUGUCAUUCAUGCUGUCCCACAAAUAGUUUUUUGUUUACGAUUUAUGACAGGUUUAUGUUACUUCUAUUUGAAUUUCUAUAUUUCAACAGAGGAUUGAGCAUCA,0.983 ratio
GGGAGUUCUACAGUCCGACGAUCUGUGCUCAUAUAUAGCAGUUAGAGUGGGUUGCCCCUCUACUCCCAAGAAGAAAUCCCAGAUAGCUUCCUUUCAUGUCGGAUUAUACUGUUCUGAUUUUACUUUCUAUUAUUUUUACUUAUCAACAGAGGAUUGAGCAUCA,1.19 ratio
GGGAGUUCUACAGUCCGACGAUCCCACUUUUUACCUUCUGAUCACCUCAGUGAGGUAAAACCUCCUUGGCAUUUGGCUGGUACUAGAGCCAGUGAUUCAUAAGAAGUUUUUUUCACAUUUCAUUUCUUUCAUGCUCAUAGACACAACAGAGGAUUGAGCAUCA,0.293 ratio
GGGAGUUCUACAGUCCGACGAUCAUCAUGGACGCUUUUACCUACCUCAGUGAGGUAACGUCUCCCCUGACGUUUGGUUGGCACUAGGGCCCAUCACACCUGAUCUGUCUUUCCACAUUUCAUCUCUUUAUGCUCACACUCAUCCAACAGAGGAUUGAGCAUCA,0.933 ratio
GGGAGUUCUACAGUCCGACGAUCAGCUUCUGGUGACAUUUGGCCUGGCCUUUCAGCAUAUGAUAACAGUCCAAGGUCACCCCAUAGUCCUUCUAUUGCCUCCCCACCCAGUCAGAGUUCAUCUUGCUCUGAUGCCCCUUUGCUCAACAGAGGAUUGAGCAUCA,0.586 ratio
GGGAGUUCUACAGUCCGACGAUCCAUCCUUUCAUACUGUCAUGGACUAGGAUCAGGGACAAAUGUCUGUCUGAGAAACUGCAUUUAAAACAUUUUUUUAAAUCAUUGUACAGGAAGAGAUGGGUCUAAACAGCAUCUCAGAGUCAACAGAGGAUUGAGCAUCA,0.468 ratio
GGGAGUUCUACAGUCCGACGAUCUAUUGUACGUAGAGAAAAAAUUUUCCUUGACCCCAUUGUGAAAUUCCCUAGCAAUUUAUUUAGAAUCUUCAUUUUUCUCGUUCAAGCUCACUGUAUUAGUUAUUUUUAGCCCAUAAUUAACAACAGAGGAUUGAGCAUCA,5.51 ratio
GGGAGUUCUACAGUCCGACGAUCAAAUUUAUUUCAUGCCAUGGACUCCAUACCGUACAGAUACGUUGAUAGAAUAUGCGUCUUUAGAGGACUUCCAAAACAGCCGCCAAACAACAACUUACAAACUUCCAAAUCGUGUGGAUGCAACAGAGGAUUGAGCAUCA,1.99 ratio

# Block 4
# Target: Histone acetyltransferase KAT6A, both winged helices, GST fusion (KAT6A, Homo sapiens, UniProt Q92794, residues 1-181)
# Technique: protein binding microarray
# Form: double-stranded DNA, one strand shown
# Matrix: in vitro
# Concentration: not given
# Setting: 8-mer, flanks averaged, mean of 2 arrays, mostly near background
# Reference: not given
# Reading: higher = stronger binding
# Construct (chain): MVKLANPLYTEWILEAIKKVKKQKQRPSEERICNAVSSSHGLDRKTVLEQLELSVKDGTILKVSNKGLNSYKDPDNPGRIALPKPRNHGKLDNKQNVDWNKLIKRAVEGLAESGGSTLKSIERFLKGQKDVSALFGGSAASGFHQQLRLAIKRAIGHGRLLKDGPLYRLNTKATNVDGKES
Strand,E-score
ACGCGAGG,0.142
CAGAGTGG,-0.223
CGTGTGAC,0.12
CTCTACGA,-0.0322
CTTTAGAA,0.0377
ATCGGTCC,0.0966
CGGAAAAA,0.231
CTACGACA,-0.0562
GGCCATGA,-0.108
AGGCTTCC,0.0144
TGGTACCA,-0.107
CCCGACGG,0.367
ATTGCTGA,-0.14
GGTTCAAA,0.15
TAGACCCA,-0.278
ACCATTCT,-0.216
ATTGGTTC,-0.0425
AGAGCGTC,0.0158
ACATCTAC,-0.0598
AGGTACCG,0.13
AAGTAAGT,-0.157
CCTTCTCG,-0.099
AGGGAGAC,-0.0857
GAGGTATA,-0.184
ATTGTCAC,-0.0238

# Some of these lines once more (block 3):
Strand,bound/input enrichment
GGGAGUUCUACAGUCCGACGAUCUCCUCAACUUGUUCUAGCUAGUGAUCCUUCAAAGUUGAGUCAGGCAUUGAUAGUAGGUAUUAGAUGCUUUCAUUUCUUUGUUGCCACUGAUCAGAUAAACAGGCGUUAAAAACAGGAAUACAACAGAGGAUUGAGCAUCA,0.636 ratio
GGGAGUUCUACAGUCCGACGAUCUAGUGCUAAAGCCAAUGGUGGUUCUAAAAUACUAUUUAUUUGUGUCUAUAAGUUUGUACAUAGUAAUACCAACCUCAUUGUUACUGAAUUUUUCAUGGAGGGGGGCAAGUUUGACUUUUGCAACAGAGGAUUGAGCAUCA,1.24 ratio
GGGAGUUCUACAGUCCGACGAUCGGGACGCUUUGAUGUAAAAAUUGAAGUUAAGAGCUGAUCACAAGCACAAAUCUUUCCCACUAGCCAUUUAAUAAGUUAAAGAAAAAGAUACACAAACCUACUAGUCUUGAACAAACUGUCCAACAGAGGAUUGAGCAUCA,2.27 ratio
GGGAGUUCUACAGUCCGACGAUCUGUCUGCCUCAUUCUGAAAUUUACACAGUAGACCAUUUGUCAUUCAUGCUGUCCCACAAAUAGUUUUUUGUUUACGAUUUAUGACAGGUUUAUGUUACUUCUAUUUGAAUUUCUAUAUUUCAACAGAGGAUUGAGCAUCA,0.983 ratio
